Assay results collected from several papers.
Lines come from different studies, so protocols differ. “And” joins repeats or separate records; there may be more than shown. ± gives the spread as reported.
UniProt P35372, sequence (whole entry, looked up): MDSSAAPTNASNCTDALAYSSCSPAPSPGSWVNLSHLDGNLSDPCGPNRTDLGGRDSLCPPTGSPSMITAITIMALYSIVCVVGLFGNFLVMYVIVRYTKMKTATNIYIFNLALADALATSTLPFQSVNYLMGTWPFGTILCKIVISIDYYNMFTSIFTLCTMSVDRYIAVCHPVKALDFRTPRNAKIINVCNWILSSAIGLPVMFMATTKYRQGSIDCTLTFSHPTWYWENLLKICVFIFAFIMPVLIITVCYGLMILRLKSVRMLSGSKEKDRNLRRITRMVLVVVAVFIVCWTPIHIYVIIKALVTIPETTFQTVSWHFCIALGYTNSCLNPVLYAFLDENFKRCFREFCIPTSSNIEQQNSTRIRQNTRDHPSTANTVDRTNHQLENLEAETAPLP

| SMILES | target or system | test | test system | conditions | scale | measurement | value |
| --- | --- | --- | --- | --- | --- | --- | --- |
| CC[C@H](C)[C@@H]([C@@H](CC(=O)N1CCC[C@H]1[C@H](OC)[C@@H](C)C(=O)N[C@H](C)[C@@H](O)c1ccccc1)OC)N(C)C(=O)[C@@H](NC(=O)[C@H](C(C)C)N(C)C(=O)OCc1ccc(NC(=O)[C@H](CCCNC(N)=O)NC(=O)[C@@H](NC(=O)Cn2cc(CCC(=O)NCCC(=O)N(C)CC(=O)N(C)CC(=O)N(C)CC(=O)N(C)CC(=O)N(C)CC(=O)N(C)CC(=O)N(C)CC(=O)N(C)CC(=O)N(C)CC(=O)N(C)CC(=O)N[C@@H](C)C(=O)NC3CN(C)Cc4cc5cc(c4)CN(C)CC(C(N)=O)NC(=O)[C@H](C(C)(C)C)NC(=O)[C@H](CC(=O)O)NC(=O)[C@H](Cc4ccc(O)cc4)NC(=O)[C@H](Cc4ccccc4)NC(=O)[C@H](CC(=O)O)NC(=O)[C@H](CCC(=O)O)NC(=O)[C@H](CSC5)NC(=O)[C@@H](C)NC(=O)[C@H](Cc4cccc5ccccc45)NC(=O)[C@H](CCC(=O)O)NC(=O)[C@H](CC(N)=O)NC(=O)[C@@H](C)NC3=O)nn2)C(C)C)cc1)C(C)C (stereo partly drawn) |  |  | CD-1 mouse, plasma | intravenous, 3 mg/kg |  | clearance | 4.04 mL/min/kg |
| CCc1ccccc1NC(=S)N/N=C/c1ccc(O)cc1O | MCF7 |  |  | 800 µM |  | viability | < 30% |
| CCOC(=O)[C@@H](C)NP(=O)(CO[C@H](CF)CN1CNC(N)=NC1=O)N[C@H](C)C(=O)OCC | Vaccinia virus | viral replication | HEL |  |  | EC50 | > 100000 nM |
| CCCCCCCCCCCCCC(=O)N[C@@H](CCCNC(=N)N)C(=O)N[C@@H](CO)C(=O)N[C@@H](CCSC)C(=O)N[C@@H](CCCCN)C(=O)N[C@@H](CCCNC(=N)N)C(=O)N[C@@H](CO)C(=O)N[C@@H](CC(C)C)C(=O)N[C@H](C(=O)N1CCC[C@H]1C(=O)N[C@@H](CCCNC(=N)N)C(=O)N[C@@H](Cc1c[nH]c2ccccc12)C(=O)N[C@H](C(=O)NCC(=O)N[C@@H](CC(N)=O)C(=O)N[C@@H](CCCCN)C(=O)N[C@@H](CCCNC(=N)N)C(=O)O)[C@@H](C)CC)[C@@H](C)CC | Vaccinia virus |  | B5-GFP | concentration not given |  | viral spread | no effect |
| CCOC(=O)[C@@H](C)NP(=O)(CO[C@H](CF)Cn1cnc(N)nc1=O)N[C@H](C)C(=O)OCC | Vaccinia virus | viral replication | HEL |  |  | EC50 | > 100000 nM |
| Cc1ccc(NS(=O)(=O)c2c(C(=O)N3CCCCCC3)c(C)n(C)c2C)c(Cl)c1 | Vaccinia virus | viral infection | HaCaT | 0.046 µM, 36 h | relative to: untreated | infection | 111% and 117% and 83.4% |
| Cc1cc(-c2cnc3c(c2)c(O)c(-c2ccccc2)c(=O)n3O)ccc1F | Vaccinia virus | viral replication | HFF | 24 h |  | EC50 | 1600 ± 100 nM |
| CCC(NC(=O)NNS(=O)(=O)c1ccc(C)cc1)(C(F)(F)F)C(F)(F)F | Vaccinia virus |  | Vero | concentration not given |  | antiviral activity | inactive |
| O=C(Cc1csc2nc(-c3ccc(Br)cc3)cn12)NN=C1CCCC1 | Vaccinia virus | viral cytopathicity | HEL |  |  | EC50 | > 100 µg/mL |
| CCCCCCCCCCCCCCCC(=O)N[C@@H](CCC(=O)NCCOCCOCCC(=O)NCCOCCOCCC(=O)NCCCC[C@H](NC(=O)[C@H](CC(=O)O)NC(=O)[C@H](CC(C)C)NC(=O)[C@H](Cc1ccc(O)cc1)NC(=O)[C@H](CCCCN)NC(=O)[C@H](CO)NC(=O)[C@H](Cc1ccc(O)cc1)NC(=O)[C@H](CC(=O)O)NC(=O)[C@H](CO)NC(=O)[C@@H](NC(=O)[C@H](Cc1ccccc1)NC(=O)[C@@H](NC(=O)CNC(=O)[C@H](CCC(N)=O)NC(=O)[C@@H](CO)NC(=O)[C@@H](N)Cc1c[nH]cn1)[C@@H](C)O)[C@@H](C)O)C(=O)N[C@@H](CCCNC(=N)N)C(=O)N[C@@H](CCCNC(=N)N)C(=O)N[C@@H](C)C(=O)N[C@@H](CCC(N)=O)C(=O)N[C@@H](CC(=O)O)C(=O)N[C@@H](Cc1ccccc1)C(=O)N[C@H](C(=O)N[C@@H](CCC(N)=O)C(=O)N[C@@H](Cc1c[nH]c2ccccc12)C(=O)N[C@@H](CC(C)C)C(=O)N[C@@H](CC(C)C)C(=O)N[C@@H](CC(N)=O)C(=O)N[C@H](C(=O)NCC(=O)NCC(=O)N1CCC[C@H]1C(=O)N[C@@H](CO)C(=O)N[C@@H](CO)C(=O)NCC(=O)N[C@@H](C)C(=O)N1CCC[C@H]1C(=O)N1CCC[C@H]1C(=O)N1CCC[C@H]1C(=O)N[C@@H](CO)C(N)=O)[C@@H](C)O)C(C)C)C(=O)O |  |  | Sprague-Dawley rat, male | subcutaneous, 20 µg/kg once daily, 14 days |  | creatinine | 22.8 ± 1.8 µmol/L |
| CC(C)OC(=O)[C@H](Cc1ccccc1)NP(=O)(COCCn1cnc2c(=O)[nH]c(=O)[nH]c21)N[C@@H](Cc1ccccc1)C(=O)OC(C)C | Vaccinia virus |  | HEL |  |  | EC50 | > 100000 nM |
| CC(C)C[C@H](NC(=O)[C@H](CO[C@@H]1O[C@H](CO)[C@@H](O)[C@H](O)[C@H]1O)NC(=O)[C@H](CCCCN)NC(=O)[C@H](CC(C)C)NC(=O)[C@H](C)NC(=O)[C@H](CCCCN)NC(=O)[C@H](CCC(=O)O)NC(=O)CNC(=O)[C@H](CC(C)C)NC(=O)[C@H](CC(N)=O)NC(=O)[C@@H]1CCCN1C(=O)[C@H](CC(C)C)NC(=O)[C@H](Cc1ccccc1)NC(=O)CNC(=O)[C@H](NC(=O)[C@@H](N)Cc1ccc(O)cc1)[C@H](C)O)C(N)=O | OPRM1 (Homo sapiens, UniProt P35372) | radioligand displacement | CHO membranes | 60 min, pH 7.5, 25 °C, with: 0.25 nM [3H]DAMGO |  | Ki | 2.9 ± 0.32 nM |

A few entries again:
| SMILES | target or system | test | test system | conditions | scale | measurement | value |
| --- | --- | --- | --- | --- | --- | --- | --- |
| CCCCCCCCCCCCCCCC(=O)N[C@@H](CCC(=O)NCCOCCOCCC(=O)NCCOCCOCCC(=O)NCCCC[C@H](NC(=O)[C@H](CC(=O)O)NC(=O)[C@H](CC(C)C)NC(=O)[C@H](Cc1ccc(O)cc1)NC(=O)[C@H](CCCCN)NC(=O)[C@H](CO)NC(=O)[C@H](Cc1ccc(O)cc1)NC(=O)[C@H](CC(=O)O)NC(=O)[C@H](CO)NC(=O)[C@@H](NC(=O)[C@H](Cc1ccccc1)NC(=O)[C@@H](NC(=O)CNC(=O)[C@H](CCC(N)=O)NC(=O)[C@@H](CO)NC(=O)[C@@H](N)Cc1c[nH]cn1)[C@@H](C)O)[C@@H](C)O)C(=O)N[C@@H](CCCNC(=N)N)C(=O)N[C@@H](CCCNC(=N)N)C(=O)N[C@@H](C)C(=O)N[C@@H](CCC(N)=O)C(=O)N[C@@H](CC(=O)O)C(=O)N[C@@H](Cc1ccccc1)C(=O)N[C@H](C(=O)N[C@@H](CCC(N)=O)C(=O)N[C@@H](Cc1c[nH]c2ccccc12)C(=O)N[C@@H](CC(C)C)C(=O)N[C@@H](CC(C)C)C(=O)N[C@@H](CC(N)=O)C(=O)N[C@H](C(=O)NCC(=O)NCC(=O)N1CCC[C@H]1C(=O)N[C@@H](CO)C(=O)N[C@@H](CO)C(=O)NCC(=O)N[C@@H](C)C(=O)N1CCC[C@H]1C(=O)N1CCC[C@H]1C(=O)N1CCC[C@H]1C(=O)N[C@@H](CO)C(N)=O)[C@@H](C)O)C(C)C)C(=O)O |  |  | Sprague-Dawley rat, male | subcutaneous, 20 µg/kg once daily, 14 days |  | creatinine | 22.8 ± 1.8 µmol/L |
